# Published values of several laboratories.
# Protocols differ between the studies behind these lines. Several values in a cell are separate wells, animals, samples, runs or records. Numbers after ± are the reported error.
Compound,cell line,test,conditions,how to read,endpoint,result
CNS(=O)(=O)Nc1nccc(Cc2c(C)c3ccc(Oc4ncccc4F)cc3oc2=O)c1F,NCI-H1944,cell viability,7 days,,IC50,0.00445 µM
C=CC(=O)Nc1cc(Nc2nccc(-c3c(-c4ccccc4)n(C)c4ccccc34)n2)c(OC)cc1N(C)CCN(C)C,NCI-H1975,"cell growth or viability, MTT","0.5 µM, 72 h",,inhibition,59.5%
O=C(C[Se]C(=O)c1cccnc1Nc1cccc(C(F)(F)F)c1)Nc1cccc(C(F)(F)F)c1,NCI60 leukaemia subpanel,NCI60 five-dose screen,,,mean TGI,4.19 µM
Cc1ccc(-n2cc(CSc3nc4ccccc4n3Cc3cn(-c4ccc(C)cc4)nn3)nn2)cc1,Caco-2,MTT,15.6 ppm,,cytotoxicity,58.9%
CCN(CC)c1ccnc(N2Cc3cnn(Cc4ccc(F)cc4)c3C2)n1,HEK293 expressing GluA1 and GluA2,"glutamate excitotoxic cell death, CellTox Green",with: glutamate,,IC50,0.543 µM
NC(=O)c1ccc(-c2ccccc2Cl)c2c3c([nH]c12)CC[C@@H](N)C3,RKO,cell growth or viability,,,IC50,0.00274 µM
O=C(C[Se]C(=O)c1cc2ccccc2o1)Nc1cccc(C(F)(F)F)c1,NCI60 melanoma subpanel,"cell growth, inhibitor",five-dose,,GI50,1.66 µM
Cc1ncsc1-c1ccc([C@H](C)NC(=O)[C@@H]2C[C@@H](O)CN2C(=O)[C@@H](NC(=O)[C@H]2C[C@H](C(=O)N3CCC(c4cc(Nc5cc(C#N)ccn5)nc(N5CCC(F)(F)C5)c4)CC3)C2)C(C)(C)C)cc1,CAL-33 with inducible wild-type LZK,"MS proteomics, item: SMG6","500 nM, 24 h, with: doxycycline",relative to: DMSO,protein level log2 fold change,0.284
Cc1cc(/N=N/c2ccc(/N=N/c3ccc(O)c(C(=O)O)c3)cc2)c(N)cc1N,primary mouse articular chondrocytes,"Western blot, item: Phlpp2","25 µM, days 0-6 and 0-9",relative to: vehicle,protein level,50 to 70%
Cc1c(Cl)cccc1Nc1ccccc1C(=O)[Se]CC(=O)Nc1cccc(C(F)(F)F)c1,NCI60 leukaemia subpanel,NCI60 five-dose screen,,,mean TGI,3.57 µM
C=CC(=O)Nc1cc(Nc2nccc(-c3c(-c4cccc(-c5ccccc5)c4)n(C)c4ccccc34)n2)c(OC)cc1N(C)CCN(C)C,NCI-H1975,"cell growth or viability, MTT","0.5 µM, 72 h",,inhibition,73.5%
CC(C)Cc1ccc(C(C)C(=O)[Se]CC(=O)Nc2cccc(C(F)(F)F)c2)cc1 (stereo not drawn),NCI60 melanoma subpanel,"cell growth, inhibitor",five-dose,,GI50,2.01 µM
COc1cccc(OC)c1-c1cc(C(=O)NC2(C(=O)O)C3CC4CC(C3)CC2C4)nn1-c1ccc(C(=O)N(C)CCCN(C)C(=O)[C@H](CCCCNC(=O)[C@H](CC(C)C)NC(=O)C2OC2C(=O)O)NC(=O)CN2CCN(CC(=O)[O-])CCN(CC(=O)[O-])CCN(CC(=O)[O-])CC2)cc1C(C)C.[177Lu+3] (mixture of isomers),HT-29,,"240 min, 4 h",relative to: added activity,internalized fraction,5.41 ± 0.51%
CCOc1ccc(/C=C/C(=O)Nc2cc(Nc3nccc(-c4cn(C)c5ccccc45)n3)c(OC)cc2N(C)CCN(C)C)cc1,NCI-H1975,"cell growth or viability, MTT","0.5 µM, 72 h",,inhibition,69.1%
CCCC(CCC)C(=O)OCc1cn(-c2cc3ccccc3oc2=O)nn1,HOP-62,NCI60 single-dose screen,10 µM,,growth percentage,98.3%
COc1ccc2c(c1)c(CC(=O)[Se]CC(=O)Nc1cccc(C(F)(F)F)c1)c(C)n2C(=O)c1ccc(Cl)cc1,NCI60 CNS subpanel,cell growth,"10 µM, 48 h, one-dose",,mean growth percent,-86.6%
CCCCc1ccc(/C=C/C(=O)Nc2cc(Nc3nccc(-c4cn(C)c5ccccc45)n3)c(OC)cc2N(C)CCN(C)C)cc1,NCI-H1975,"cell growth or viability, MTT","0.5 µM, 72 h",,inhibition,60.2%
CCOC(=O)c1ccc(-n2c(N)c(C#N)c(SC)c(C#N)c2=O)cc1,HepG2,"cell growth or viability, MTT","12.5 µM, 24 h",,viability,67.5%
COc1cc(N(C)CCN(C)C)c(NC(=O)/C=C/c2ccc(C(F)(F)F)cc2)cc1Nc1nccc(-c2cn(C)c3ccccc23)n1,NCI-H1975,"cell growth or viability, MTT","0.5 µM, 72 h",,inhibition,71.3%
COc1ccc2c(c1)C(n1nnc3ccccc31)C1=C(CCCC1=O)O2 (stereo not drawn),3T3-L1 preadipocytes,"adipogenesis, Oil Red O staining","IC20, 14 days",,mean lipid content,0.753 OD492
CCNc1cc2c(cc1C)C1(c3cc(C)c(NCC)cc3O2)c2ccccc2C(=O)N1N=Cc1c[c-]c(-c2ccccn2)cc1.Cc1c(C)c(-c2ccc(-c3ccccc3)cc2)[c-](C)c1C.[Cl-].[Ir+3],A549,PI flow cytometry,"1 x IC50, 24 h",,G2/M phase cells,13.65 ± 0.13%
Cn1ncc2cc(-c3cncc(Cl)c3N3CCC4(CCNC4=O)CC3)ccc21,LS174T,"gene expression, microarray, item: NCOA5 mRNA","concentration not given, 24 h",relative to: untreated cells,log2 fold change,-2.12
CN1CCCNC(=O)c2cccc(c2)C(=O)NCCCN(C)CCCNc2cccc3c2C(=O)c2cccc(c2C3=O)NCCC1,SAS,"RNA-seq, item: MT-ND3 mRNA","5 µM, 24 h",relative to: untreated cells,log2 fold change,-4.52
O=C1CCCC2=C1C(c1c[nH]c3ccccc13)c1cc(Br)ccc1O2 (stereo not drawn),3T3-L1 preadipocytes,"adipogenesis, Oil Red O staining","IC20, 14 days, single replicate",,lipid content,0.603 OD492 and 0.625 OD492 and 0.615 OD492
O=C(c1cccc(N2Cc3cn(Cc4ccc(F)cc4)nc3C2)c1)N1CCNCC1,HEK293 expressing GluA1 and GluA2,"glutamate excitotoxic cell death, CellTox Green",with: glutamate,,IC50,0.015 µM
Cc1ncsc1-c1ccc(C(C)NC(=O)C2CC(O)CN2C(=O)C(NC(=O)CCCCCCCCCCN2CCCC(Nc3ncc(Cl)c(Nc4ccccc4S(=O)(=O)C(C)C)n3)C2)C(C)(C)C)cc1 (stereo not drawn),22Rv1,"RNA-seq, item: ZNF844 mRNA",concentration not given,relative to: DMSO,log2 fold change,-1.54
COC(=O)c1cc(NC2=NC(=O)C(=Cc3ccc(C)cc3)S2)ccc1OC(C)=O,MCF7,"GC-MS, item: D-Mannose",1 µM,relative to: DMSO,metabolite level,-0.42 fold change
CCN(C(=O)c1cc(F)ccc1Oc1nncnc1N1CCC2(C1)CN([C@H](CCCN(C)CCOC)C(C)C)C2)C(C)C,COLO-678,cell growth or viability,72 h,,GI50,> 10 µM
C=CC(=O)Nc1cc(Nc2nccc(-c3c(-c4cccc(OC)c4)n(C)c4ccccc34)n2)c(OC)cc1N(C)CCN(C)C,NCI-H1975,"cell growth or viability, MTT","0.5 µM, 72 h",,inhibition,77%
O=C(C[Se]C(=O)C12CC3CC(CC(C3)C1)C2)Nc1cccc(C(F)(F)F)c1,NCI60 leukaemia subpanel,NCI60 five-dose screen,,,mean TGI,17.3 µM
CCN(CC)CC(=O)Nc1cccc(-n2cc(-c3ccc4ccc(-c5cn(-c6cccc(NC(=O)CN(CC)CC)c6)nn5)cc4c3)nn2)c1,RCC4,"PCR angiogenesis array, item: FGF1","5 x IC50, 4 h, normoxia",relative to: untreated,fold regulation,-1.13
Cc1cc(Cl)cc(-c2ccnc3cc(CN4C(=O)C5C(C4=O)C5(C)C)sc23)c1C[C@@H]1CNCCO1 (stereo partly drawn),CHP-212 parental,annexin V/PI flow cytometry,"1 µM, 48 h",,early apoptotic cells,35.5% and 37.4% and 37.6%
CN(C)CCN1CCN(c2ccc3nc(-c4ccc5nc(-c6ccc(C(F)(F)F)cc6)[nH]c5c4)[nH]c3c2)CC1,HCC 2998,SRB,"10 µM, 48 h",,growth percent,84.7%
COC(=O)C1=C(C)Oc2cc(OC)ccc2C1C(C(C)=O)C(=O)OC (stereo not drawn),3T3-L1 preadipocytes,"adipogenesis, Oil Red O staining","IC20, 14 days, single replicate",,lipid content,0.716 OD492
O=C(N1CCCC1)n1cc(-c2ccc(-c3ccccc3)cc2)nn1,mouse T cells,"N-terminal labelling proteomics, item: PAIP2 N-terminal peptides","0.001 µM, 6 h",relative to: DMSO,SILAC ratio,1.06
O=C(C[Se]C(=O)c1ccccc1Nc1ccccc1)Nc1cccc(C(F)(F)F)c1,NCI60 CNS subpanel,NCI60 five-dose screen,,,mean TGI,3.54 µM
COc1ccccc1-c1ccncc1C(=O)Nc1nnc(OCc2ccc(Cl)cc2)s1,DLD-1 BRCA2 knock-out,immunofluorescence,"5 µM, 96 h",,γH2AX foci-positive nuclei,48%
O=C(C[Se]C(=O)c1ccccc1Nc1cccc(C(F)(F)F)c1)Nc1cccc(C(F)(F)F)c1,NCI60 melanoma subpanel,"total growth inhibition, inhibitor",five-dose,,mean TGI,4.39 µM
CC(C)c1ccc(N(C)c2ccc3c(c2)OCC[C@H]3CNc2cnccc2C(=O)O)cc1,NCI-H1930,"cell growth or viability, ATP luminescence",7 days,,IC50,0.02 µM
COc1ccccc1-c1ccncc1C(=O)Nc1ccc(OCc2ccc(Cl)cc2)nn1,DLD-1 parental (BRCA2 WT),,"5 µM, average of 3 runs",relative to: untreated,colony survival,101%
N=C(N)NCCC[C@@H](NC(=O)[C@H](Cc1ccccc1)NC(=O)[C@H](Cc1ccccc1)NC(=O)[C@@H](CCCNC(=N)N)NC(=O)CCCC[C@@H]1SC[C@@H]2NC(=O)N[C@@H]21)C(N)=O,MDBK,alamarBlue,"concentration not given, 5 days, serum-free medium",relative to: untreated cells,maximum cell viability increase,1.8 fold
C=CS(=O)(=O)c1ccc(OC)c(-c2c[nH]c3ncc(-c4cncc(C(=O)N(C)C)c4)cc23)c1,Ba/F3 BCR-ABL wild type,cell proliferation,72 h,,GI50,> 1 µM

# Repeated from above:
Compound,cell line,test,conditions,how to read,endpoint,result
NC(=O)c1ccc(-c2ccccc2Cl)c2c3c([nH]c12)CC[C@@H](N)C3,RKO,cell growth or viability,,,IC50,0.00274 µM
O=C(C[Se]C(=O)c1cc2ccccc2o1)Nc1cccc(C(F)(F)F)c1,NCI60 melanoma subpanel,"cell growth, inhibitor",five-dose,,GI50,1.66 µM
Cc1ncsc1-c1ccc([C@H](C)NC(=O)[C@@H]2C[C@@H](O)CN2C(=O)[C@@H](NC(=O)[C@H]2C[C@H](C(=O)N3CCC(c4cc(Nc5cc(C#N)ccn5)nc(N5CCC(F)(F)C5)c4)CC3)C2)C(C)(C)C)cc1,CAL-33 with inducible wild-type LZK,"MS proteomics, item: SMG6","500 nM, 24 h, with: doxycycline",relative to: DMSO,protein level log2 fold change,0.284
